{"data": "Measurements pooled from the literature", "note": "Numbered parts are unrelated; each lists some results of a single study. Changes are numbered by the printed parent chain."}
{"data": "Study 1", "Molecule": "PhoQ, residues 284 288 289 292 302 303 SCCLKL", "technique": "Sort-seq", "item": "YFP reporter", "sample": "E. coli", "notes": "PhoQ-PhoP variant library", "added": "10 µM Mg2+", "baseline": "high Mg2+ state", "reading": "higher = stronger signaling"}
{"target": "PhoP, residues 12 14 15 18 19 QYFSL (Escherichia coli, UniProt P23836)", "fold induction": 4.91}
{"target": "PhoP, residues 12 14 15 18 19 NYFRM (Escherichia coli, UniProt P23836)", "fold induction": 6.78}
{"target": "PhoP, residues 12 14 15 18 19 TQALL (Escherichia coli, UniProt P23836)", "fold induction": 10.3}
{"data": "Study 2", "target": "CCNB2, cyclin fold, Cln2 fusion (human)", "technique": "yeast growth competition, sequencing", "sample": "yeast", "notes": "strong parent motif", "baseline": "not given", "reading": "higher = stronger binding", "starting sequence": "PKMYT1 docking peptide (human); SFEPRNLLSLFED"}
{"Change": "S1G", "normalised enrichment score": 1.55}
{"Change": "E3F", "normalised enrichment score": 0.947}
{"Change": "D13T", "normalised enrichment score": 0.855}
{"Change": "N6W", "normalised enrichment score": -0.302}
{"Change": "E12A", "normalised enrichment score": 0.327}
{"Change": "S1F", "normalised enrichment score": 1.54}
{"Change": "F2K", "normalised enrichment score": -0.355}
{"Change": "F11H", "normalised enrichment score": -0.344}
{"Change": "P4F", "normalised enrichment score": -0.593}
{"Change": "S9G", "normalised enrichment score": 0.825}
{"data": "Study 3", "target": "Histone acetyltransferase KAT6A, winged helix 1, GST fusion (KAT6A, Homo sapiens, UniProt Q92794, residues 1-85)", "technique": "protein binding microarray", "form": "double-stranded DNA, one strand shown", "sample": "in vitro", "tested at": "not given", "notes": "8-mer, flanks averaged, mean of 2 arrays, mostly near background", "baseline": "not given", "reading": "higher = stronger binding", "Target sequence (chain)": "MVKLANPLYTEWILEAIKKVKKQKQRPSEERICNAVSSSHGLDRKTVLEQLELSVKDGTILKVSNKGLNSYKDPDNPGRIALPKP"}
{"Sequence": "ATGCATGG", "E-score": -0.0328}
{"Sequence": "ATATTGAA", "E-score": -0.212}
{"Sequence": "CAATCAAC", "E-score": -0.0374}
{"Sequence": "CAATGAAA", "E-score": -0.288}
{"Sequence": "ACGTTAGT", "E-score": -0.0211}
{"Sequence": "ACACGGCT", "E-score": 0.288}
{"Sequence": "CCTCACTC", "E-score": -0.159}
{"Sequence": "GTCCGAAC", "E-score": 0.175}
{"Sequence": "ACAACGGG", "E-score": 0.0813}
{"Sequence": "GTAATAAC", "E-score": -0.0102}
{"Sequence": "CGGTTCAA", "E-score": 0.183}
{"data": "Study 4", "target": "RNA binding protein fox-1 homolog 2, RRM domain, GST-SBP tag (RBFOX2, Homo sapiens, UniProt O43251-10, residues 100-194)", "technique": "RNA Bind-n-Seq", "form": "RNA", "sample": "in vitro", "tested at": "365 nM", "notes": "natural RNA segment, single round, ends assumed", "baseline": "no-protein control", "reading": "higher = stronger binding", "shared flanks, not repeated": "GGGAGUUCUACAGUCCGACGAUC … UGGAAUUCUCGGGUGCCAA", "Target sequence (chain)": "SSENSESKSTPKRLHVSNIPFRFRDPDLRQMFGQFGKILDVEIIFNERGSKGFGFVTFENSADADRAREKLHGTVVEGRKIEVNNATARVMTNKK"}
{"Sequence": "CUGUCCCGUCUGUGGCAGAGGUUUCUGGCCAGAGGACCCUUCCCGGUUCAUCUCCCCUCAUCUUCUUUUCCCAACUGUGAAAAUUAGUUCUCCGGUCCCAGCUUCCUGCU", "RBNS enrichment (R)": 0.477}
{"Sequence": "UUCGUCUCCAAGGUCAUGCUGAAUGCCGGCCAAAAGAGAUGAACCCUGCCCCUUGCCCAGGGCCAGUGCCAUGGGGAAGGGGCUUGUGGGGAGGGGACCCAUGAAUCCUG", "RBNS enrichment (R)": 0.295}
{"Sequence": "GAUCCUUCCUCUCCGAGGAUCCUCAUUAUAUACCUAGUAGGAAGGACUCUGAACUCAGAGCAGUCACACUUCCUUGGUUUUUUUAGGUUAGACAUUAACAAACAGCAGGA", "RBNS enrichment (R)": 0.499}
{"Sequence": "ACCUGAAAUAGCCAUGAGCAAAGCCCACUGCCUUUACAGUCAGGCAGUUGUGCCCAGACCUUCAUGAAUGAAAACGUCAACGUUGAAGCGUUGCUGAUGGAAGCAGCGUG", "RBNS enrichment (R)": 0.337}
{"Sequence": "GACAACUUCCUUCCUUUAAGAUGCUAAGUGGUGAACUUUACUGUUUUGUACAGUGAACUGUGACUUUGUUGAUGUUUGCUUUAGCUAUAUUCAAGGCAGUGGUCUGUGGC", "RBNS enrichment (R)": 0.504}
{"Sequence": "GGUGAACUUUUGGGGUCAUUAUAUCAAUUUUUUCUUUGGAUUCAAAUUGUAAUGUCCCCUGCAUUUCCUUAAUAGGGAAUGUGAAACCUUUAUAAAACUCUAAAAGUAUU", "RBNS enrichment (R)": 0.358}
{"Sequence": "AUAUUAUGUAUAAAUAAAUAUAUUCAUAAUGAGUAUAUGUAAUGGAUAGCACAACGUUUGGAGACGUGACAAAUGCUCUUACCCUUUGGAGACAAAAGUCCUAUUUUCUG", "RBNS enrichment (R)": 0.344}
{"Sequence": "UCACUGCAACCUCCACCUCCUGGGUUCAAGCAAUUCUUGUGCCUCAGCCUCCCGAGUAGCUGGGAUUACAGGCACCCACCACCACGCUCAGCUAAUUUUUGUAUUUUUAG", "RBNS enrichment (R)": 0.575}
